# Assay results of several laboratories.
# Lines come from different studies, so protocols differ. pIC50: −log10 of the molar value.
# Effect on: DPPH scavenging
Structure (SMILES),technique,time,endpoint,value
CCCCn1cc(C(=O)O)c(=O)c2cc(F)c(Nc3cccc(Cl)c3)c(N)c21,,30 min,pIC50,3.96
O=C(O)/C=C/c1cc(O)cc(O)c1,absorbance,,IC50,65 µg/mL
CCCCn1cc(C(=O)O)c(=O)c2cc(F)c(Nc3ccccc3Cl)c(N)c21,,30 min,pIC50,4.05
c1ccc(-c2cc(-c3ccc4ccccc4n3)c3c4nncn4c4nncn4c3n2)cc1,absorbance,30 min,pIC50,3.92
c1coc(-c2nc3ccccc3[nH]2)c1,absorbance,,pIC50,5.85
S=C(NCc1ccccn1)NCc1ccccn1,,,IC50,120 µg/mL
O=c1c(O)c(-c2cc(O)ccc2O)oc2cc(O)cc(O)c12,absorbance,,IC50,64 µg/mL
COc1cc(/C=C/C(=O)CC(=O)/C=C/c2ccc(OC(=O)CCc3c[nH]c4ccccc34)c(OC)c2)ccc1OC(=O)CCc1c[nH]c2ccccc12,,,pIC50,3.20
COc1cc(/C=C/C(=O)NC(C)C(N)=O)ccc1OCc1ccccc1 (centres unmarked),,,pIC50,4.09
CC(=O)c1nn(-c2ccc([N+](=O)[O-])cc2)c2nc3nc(-c4ccccc4)cc(-c4ccc5ccccc5n4)c3c(=O)n12,absorbance,30 min,pIC50,3.87
O=C(O)/C=C/c1ccc(O)cc1,,,IC50,59 µg/mL

# Repeated from above:
Structure (SMILES),technique,time,endpoint,value
c1coc(-c2nc3ccccc3[nH]2)c1,absorbance,,pIC50,5.85
